# Measurements of several laboratories.
# Parts stem from different laboratories: compare values within a part only.
# Sequence of UniProt O95819 (whole entry, looked up): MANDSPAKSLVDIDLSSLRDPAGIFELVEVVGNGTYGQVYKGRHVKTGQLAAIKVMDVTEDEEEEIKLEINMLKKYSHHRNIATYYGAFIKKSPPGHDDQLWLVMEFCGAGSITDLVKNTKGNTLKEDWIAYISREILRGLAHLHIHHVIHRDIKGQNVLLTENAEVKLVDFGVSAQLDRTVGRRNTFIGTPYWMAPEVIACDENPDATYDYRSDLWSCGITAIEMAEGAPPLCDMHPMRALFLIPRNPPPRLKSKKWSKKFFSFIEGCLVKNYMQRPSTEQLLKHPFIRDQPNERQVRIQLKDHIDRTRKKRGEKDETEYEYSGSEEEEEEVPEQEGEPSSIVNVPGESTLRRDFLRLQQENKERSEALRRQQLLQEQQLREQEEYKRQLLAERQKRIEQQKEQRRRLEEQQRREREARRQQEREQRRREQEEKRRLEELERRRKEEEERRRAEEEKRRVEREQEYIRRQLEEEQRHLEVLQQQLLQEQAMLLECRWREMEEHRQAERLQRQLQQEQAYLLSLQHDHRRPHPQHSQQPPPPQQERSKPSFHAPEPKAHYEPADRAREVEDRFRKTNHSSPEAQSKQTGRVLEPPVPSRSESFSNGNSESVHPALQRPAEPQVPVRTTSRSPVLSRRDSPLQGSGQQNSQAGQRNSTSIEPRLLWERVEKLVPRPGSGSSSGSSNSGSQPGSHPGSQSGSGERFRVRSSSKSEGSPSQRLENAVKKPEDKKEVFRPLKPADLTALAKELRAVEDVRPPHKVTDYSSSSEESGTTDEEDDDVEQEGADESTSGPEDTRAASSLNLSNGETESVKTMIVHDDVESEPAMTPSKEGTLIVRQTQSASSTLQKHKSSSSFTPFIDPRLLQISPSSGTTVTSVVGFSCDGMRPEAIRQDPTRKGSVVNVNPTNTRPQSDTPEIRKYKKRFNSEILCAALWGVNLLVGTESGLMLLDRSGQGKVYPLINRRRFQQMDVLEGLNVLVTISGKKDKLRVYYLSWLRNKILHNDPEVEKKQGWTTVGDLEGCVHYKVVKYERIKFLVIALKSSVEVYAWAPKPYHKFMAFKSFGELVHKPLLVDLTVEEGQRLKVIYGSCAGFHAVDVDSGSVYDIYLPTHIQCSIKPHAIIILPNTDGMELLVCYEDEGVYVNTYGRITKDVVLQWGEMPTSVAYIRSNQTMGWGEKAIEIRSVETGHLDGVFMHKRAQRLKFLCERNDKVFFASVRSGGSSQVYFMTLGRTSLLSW
# Sequence of UniProt P04629 (whole entry, looked up): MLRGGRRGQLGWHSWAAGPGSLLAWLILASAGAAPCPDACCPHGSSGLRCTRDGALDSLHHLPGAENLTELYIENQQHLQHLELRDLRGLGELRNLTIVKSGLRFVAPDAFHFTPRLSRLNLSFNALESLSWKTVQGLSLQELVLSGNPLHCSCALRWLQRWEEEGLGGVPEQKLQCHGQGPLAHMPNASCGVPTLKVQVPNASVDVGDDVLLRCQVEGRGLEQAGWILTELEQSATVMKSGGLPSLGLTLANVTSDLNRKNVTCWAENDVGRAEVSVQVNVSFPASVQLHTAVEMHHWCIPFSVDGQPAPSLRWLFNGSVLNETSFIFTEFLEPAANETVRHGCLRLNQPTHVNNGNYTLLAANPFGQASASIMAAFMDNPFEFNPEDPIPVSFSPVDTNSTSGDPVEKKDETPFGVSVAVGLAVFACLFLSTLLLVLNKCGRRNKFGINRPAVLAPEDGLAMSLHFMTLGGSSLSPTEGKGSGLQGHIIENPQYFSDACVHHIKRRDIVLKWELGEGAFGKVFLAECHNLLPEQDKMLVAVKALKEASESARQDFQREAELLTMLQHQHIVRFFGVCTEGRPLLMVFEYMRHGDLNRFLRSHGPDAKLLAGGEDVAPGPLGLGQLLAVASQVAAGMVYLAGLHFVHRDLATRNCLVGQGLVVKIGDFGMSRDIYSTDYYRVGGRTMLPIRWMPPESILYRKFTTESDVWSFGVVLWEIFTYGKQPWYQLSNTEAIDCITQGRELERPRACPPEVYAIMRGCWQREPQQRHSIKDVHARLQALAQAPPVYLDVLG
# Sequence of UniProt Q16539 (whole entry, looked up): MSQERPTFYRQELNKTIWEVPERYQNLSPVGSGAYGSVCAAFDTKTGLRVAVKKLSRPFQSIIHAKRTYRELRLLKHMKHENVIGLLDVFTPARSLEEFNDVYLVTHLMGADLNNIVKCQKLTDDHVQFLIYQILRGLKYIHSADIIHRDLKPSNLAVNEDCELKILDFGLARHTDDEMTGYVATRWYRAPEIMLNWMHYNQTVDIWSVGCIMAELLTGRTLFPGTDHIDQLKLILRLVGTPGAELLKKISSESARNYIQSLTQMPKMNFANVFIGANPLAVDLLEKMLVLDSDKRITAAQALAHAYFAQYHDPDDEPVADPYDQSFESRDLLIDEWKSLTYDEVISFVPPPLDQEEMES
# Sequence of UniProt Q9NWZ3 (whole entry, looked up): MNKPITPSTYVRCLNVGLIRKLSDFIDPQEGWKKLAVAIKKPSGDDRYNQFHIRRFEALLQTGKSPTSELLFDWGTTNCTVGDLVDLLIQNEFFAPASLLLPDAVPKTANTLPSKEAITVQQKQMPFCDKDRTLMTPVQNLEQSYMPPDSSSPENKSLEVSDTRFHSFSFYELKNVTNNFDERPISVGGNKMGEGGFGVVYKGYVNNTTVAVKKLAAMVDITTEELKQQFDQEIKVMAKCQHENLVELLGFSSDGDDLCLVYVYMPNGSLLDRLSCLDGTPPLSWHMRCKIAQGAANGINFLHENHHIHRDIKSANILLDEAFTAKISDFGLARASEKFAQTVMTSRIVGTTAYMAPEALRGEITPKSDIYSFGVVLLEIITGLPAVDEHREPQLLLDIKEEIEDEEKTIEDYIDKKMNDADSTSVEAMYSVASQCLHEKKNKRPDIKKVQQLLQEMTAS
# Sequence of UniProt P48736 (whole entry, looked up): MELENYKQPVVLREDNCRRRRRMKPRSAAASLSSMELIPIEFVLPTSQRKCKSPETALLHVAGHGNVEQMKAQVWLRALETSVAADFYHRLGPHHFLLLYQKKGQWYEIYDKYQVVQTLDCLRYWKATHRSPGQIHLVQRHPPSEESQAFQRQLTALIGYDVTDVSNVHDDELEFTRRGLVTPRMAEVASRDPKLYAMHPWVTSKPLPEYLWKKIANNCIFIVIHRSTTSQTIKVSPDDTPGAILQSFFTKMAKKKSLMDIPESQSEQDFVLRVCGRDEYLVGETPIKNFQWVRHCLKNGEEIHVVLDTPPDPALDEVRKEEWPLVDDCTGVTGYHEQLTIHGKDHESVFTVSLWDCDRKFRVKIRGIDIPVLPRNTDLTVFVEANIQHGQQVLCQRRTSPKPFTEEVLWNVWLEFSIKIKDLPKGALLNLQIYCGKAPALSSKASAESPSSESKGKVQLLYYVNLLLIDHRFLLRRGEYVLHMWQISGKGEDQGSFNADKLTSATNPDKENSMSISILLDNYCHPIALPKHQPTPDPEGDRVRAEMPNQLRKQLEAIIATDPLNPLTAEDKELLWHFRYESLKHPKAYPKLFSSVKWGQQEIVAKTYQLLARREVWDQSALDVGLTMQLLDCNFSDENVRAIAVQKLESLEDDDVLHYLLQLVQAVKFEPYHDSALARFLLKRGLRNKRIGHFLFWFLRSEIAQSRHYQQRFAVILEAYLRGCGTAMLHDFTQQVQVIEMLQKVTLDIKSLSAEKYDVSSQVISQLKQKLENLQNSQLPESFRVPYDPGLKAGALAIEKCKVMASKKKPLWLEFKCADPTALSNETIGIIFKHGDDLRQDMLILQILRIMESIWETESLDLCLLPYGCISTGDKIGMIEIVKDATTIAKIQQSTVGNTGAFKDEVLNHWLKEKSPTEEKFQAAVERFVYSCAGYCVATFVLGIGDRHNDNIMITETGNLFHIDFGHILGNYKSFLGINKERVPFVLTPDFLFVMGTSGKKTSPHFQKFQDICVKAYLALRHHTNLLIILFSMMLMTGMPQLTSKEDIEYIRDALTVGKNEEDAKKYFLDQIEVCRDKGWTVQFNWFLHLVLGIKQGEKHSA

# Set 1
# SMILES: C[C@H](NC(=O)c1cnc2n1[C@](C)(Cc1ccc(C#N)cc1)C(=O)N2c1cc(Cl)c(F)c(Cl)c1)C(=O)NC1(c2ccccn2)CC1
# Observed: cell-free assay
# Method: competition with immobilised ligand
# Tested at: 1 µM
target,remaining binding [%]
"IRAK4 (Homo sapiens, UniProt Q9NWZ3)",100
"TAOK2 (Homo sapiens, UniProt Q9UL54)",92
"PAK6 (Homo sapiens, UniProt Q9NQU5)",96
"PIK3CG (Homo sapiens, UniProt P48736)",86
"EGFR (Homo sapiens, UniProt P00533)",100
"PRKD1 (Homo sapiens, UniProt Q15139)",100
"MAP4K4 (Homo sapiens, UniProt O95819)",100
"NTRK1 (Homo sapiens, UniProt P04629)",98
"PIM3 (Homo sapiens, UniProt Q86V86)",100
"MAPK14 (Homo sapiens, UniProt Q16539)",100

# Set 2
# Cell line: Huh-7
# Tested at: 10 µM
# Time: 24 h
SMILES,viability [%]
CC(=O)OC(C)C[N+](C)(C)C (stereo not drawn),98.9
C#C[C@]1(O)CC[C@H]2[C@@H]3CCC4=Cc5oncc5C[C@]4(C)[C@H]3CC[C@@]21C,85.3
CC(CN(C)C)CN1c2ccccc2CCc2ccccc21 (stereo not drawn),98.5
CNC1(C)C2CCC(C2)C1(C)C (stereo not drawn),81.8
CO/N=C(\C(=O)N[C@@H]1C(=O)N2C(C(=O)OCOC(=O)C(C)(C)C)=C(/C=C\c3scnc3C)CS[C@H]12)c1csc(N)n1,96

# Set 3
# Target: Beta-adrenergic receptor kinase 1 (GRK2, Homo sapiens, UniProt P25098)
# Sequence of UniProt P25098 (whole entry, looked up): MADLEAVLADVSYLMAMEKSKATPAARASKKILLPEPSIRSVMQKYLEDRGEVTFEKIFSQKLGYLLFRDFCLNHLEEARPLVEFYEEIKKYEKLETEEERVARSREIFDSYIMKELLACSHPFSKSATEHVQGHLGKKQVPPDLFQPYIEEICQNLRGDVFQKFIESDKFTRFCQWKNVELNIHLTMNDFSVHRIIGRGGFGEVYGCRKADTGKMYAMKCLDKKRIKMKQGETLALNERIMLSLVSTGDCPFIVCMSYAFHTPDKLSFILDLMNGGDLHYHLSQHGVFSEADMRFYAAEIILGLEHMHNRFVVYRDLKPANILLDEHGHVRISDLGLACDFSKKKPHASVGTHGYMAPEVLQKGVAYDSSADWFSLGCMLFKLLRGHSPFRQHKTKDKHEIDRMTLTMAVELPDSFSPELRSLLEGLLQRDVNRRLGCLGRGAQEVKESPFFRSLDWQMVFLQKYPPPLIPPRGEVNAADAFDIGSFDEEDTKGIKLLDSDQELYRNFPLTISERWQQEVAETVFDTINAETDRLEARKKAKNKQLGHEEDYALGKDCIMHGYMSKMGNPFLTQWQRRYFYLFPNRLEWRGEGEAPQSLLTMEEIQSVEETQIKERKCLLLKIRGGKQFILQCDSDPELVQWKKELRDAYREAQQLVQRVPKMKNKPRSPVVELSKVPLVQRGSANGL
# Observed: enzyme activity
# Action: inhibitor
# Tested at: 0.5 µM
# Relative to: control
Compound,remaining activity
N#C/C(=C\c1ccc(O)c(O)c1)C(=O)NCc1ccccc1,96.6%
Cc1cc2ncc(-c3ccccc3)nc2cc1C,92.5%
O=C(Nc1cccc(Nc2nccc(Nc3cccc(C(F)(F)F)c3)n2)c1)C1CC1,84.7%
CCOc1nc(NC(=O)Cc2cc(OC)ccc2OC)cc(N)c1C#N,108%
N#Cc1c(NC(=O)c2cccc3ccccc23)sc2c1CCCC2,105%

# Mixed results
Structure (SMILES),cell line,setting,scale,measurement,value
CC/C(=C(\c1ccccc1)c1ccc(OCCN(C)C)cc1)c1ccccc1,HepG2,concentration not given,relative to: vehicle,viability,0.43%

# A few entries again (set 1):
target,remaining binding [%]
"IRAK4 (Homo sapiens, UniProt Q9NWZ3)",100
"MAP4K4 (Homo sapiens, UniProt O95819)",100
